Published values gathered from unrelated publications.
Compare with care: the assays were run in different laboratories. Numbers after ± are the reported error. Values after ≈ are worked out from the molar mass of the structure shown.

| Compound | tested on | assay | system | setting | how to read | quantity | value |
| --- | --- | --- | --- | --- | --- | --- | --- |
| CC[C@H](C)[C@H](NC(=O)[C@H](CCCCN)NC(=O)[C@H](CCCCN)NC(=O)[C@H](CC(C)C)NC(=O)[C@H](CCCCN)NC(=O)[C@H](CCC(=O)O)NC(=O)[C@H](CCCCN)NC(=O)[C@@H](NC(=O)[C@H](CCCCN)NC(=O)[C@H](CC(N)=O)NC(=O)[C@H](CCCNC(=N)N)NC(=O)[C@H](Cc1ccccc1)NC(=O)[C@H](CCCCN)NC(=O)[C@H](CCCNC(=N)N)NC(=O)[C@H](CC(C)C)NC(=O)[C@H](CCCNC(=N)N)NC(=O)[C@H](CCCCN)NC(=O)[C@H](CCCNC(=N)N)NC(=O)[C@H](CC(C)C)NC(=O)[C@@H](N)CC(C)C)[C@@H](C)CC)C(=O)NCC(=O)N[C@@H](CCC(N)=O)C(=O)N[C@@H](CCCCN)C(=O)N[C@H](C(=O)N[C@@H](CCC(N)=O)C(=O)NCC(=O)N[C@@H](Cc1ccccc1)C(=O)N[C@H](C(=O)N1CCC[C@H]1C(=O)N[C@@H](CCCCN)C(=O)N[C@@H](CC(C)C)C(=O)N[C@H](C(=O)N1CCC[C@H]1C(=O)N[C@@H](CCCNC(=N)N)C(=O)N[C@H](C(=O)N[C@@H](CCC(=O)O)C(=O)N[C@@H](CO)C(=O)O)[C@@H](C)O)C(C)C)C(C)C)[C@@H](C)CC | Micrococcus luteus | inhibition zone | CGMCC 1.029 | – | – | lethal concentration | 1.18 µM |
| N=C(N)NCCC[C@@H]1NC(=O)[C@H](CCCCNC(=O)CC[C@H](NC(=O)CCOCCOCCOCCOCCNC(=O)CC[C@H](NC(=O)CN2CCN(CC(=O)O)CCN(CC(=O)O)CCN(CC(=O)O)CC2)C(=O)NCCOCCOCCOCCOCCC(=O)N[C@@H](CCC(=O)NCCCC[C@@H]2NC(=O)[C@@H](Cc3ccccc3)NC(=O)[C@H](CC(=O)O)NC(=O)CNC(=O)[C@H](CCCNC(=N)N)NC2=O)C(=O)NCCCC[C@@H]2NC(=O)[C@@H](Cc3ccccc3)NC(=O)[C@H](CC(=O)O)NC(=O)CNC(=O)[C@H](CCCNC(=N)N)NC2=O)C(=O)NCCCC[C@@H]2NC(=O)[C@@H](Cc3ccccc3)NC(=O)[C@H](CC(=O)O)NC(=O)CNC(=O)[C@H](CCCNC(=N)N)NC2=O)NC(=O)[C@@H](Cc2ccccc2)NC(=O)[C@H](CC(=O)O)NC(=O)CNC1=O [indium-111 labelled] | – | – | female athymic nude mice, muscle | intravenous, 3 µCi, 1 h, U-87 MG glioma xenograft | – | tissue uptake | 0.91 ± 0.37 %ID/g |
| CC(C)C(C(=O)N[C@@H](Cc1ccccc1)[C@H](O)CN1CCN(Cc2ccc(Br)cc2)CC1)N1C(=O)c2ccccc2C1=O (stereo partly shown) | Plasmodium berghei | – | NK-65, mouse | subcutaneous, 100 mg/kg, four days | – | mean survival time | 20 days |
| O=C1C2=C(Nc3ccccc3SC2c2ccc(F)cc2)c2ccccc21 (racemic) | Plasmodium falciparum | – | Dd2 expressing yeast DHOD | added: 0.05 nM proguanil | baseline: transgenic over parental Dd2 | fold resistance | 7.7 |
| CCCCc1ccc(-c2nc(C)c(C(C)=NNC(=N)N)s2)cc1 | Staphylococcus aureus | – | USA300 MRSA | – | – | MBC | 1.3 mg/L (≈ 3.95 µM) |
| CC[C@H](C)[C@H](NC(=O)[C@H](CC(C)C)NC(=O)[C@@H](NC(=O)[C@H](Cc1ccc(O)cc1)NC(=O)CNC(=O)CNC(=O)[C@H](CCCNC(=N)N)NC(=O)[C@H](CC(C)C)NC(=O)[C@H](CCCCN)NC(=O)[C@H](CC(C)C)NC(=O)[C@H](CCCCN)NC(=O)[C@H](CS)NC(=O)[C@H](CC(C)C)NC(=O)[C@H](Cc1c[nH]c2ccccc12)NC(=O)CNC(=O)[C@H](CCCCN)NC(=O)[C@H](CS)NC(=O)[C@@H]1CCCN1C(=O)[C@H](CCCCN)NC(=O)[C@H](CCCNC(=N)N)NC(=O)[C@H](CCCNC(=N)N)NC(=O)[C@H](CO)NC(=O)[C@@H](N)CO)[C@@H](C)O)C(=O)NCC(=O)N[C@@H](CO)C(=O)N[C@@H](C)C(=O)N[C@H](C(=O)N[C@@H](CC(N)=O)C(=O)N[C@@H](CC(C)C)C(=O)N[C@@H](CC(N)=O)C(=O)N[C@@H](CCCNC(=N)N)C(=O)N1CCC[C@H]1C(=O)N[C@H](C(=O)N[C@@H](Cc1ccc(O)cc1)C(=O)N[C@H](C(=O)N[C@@H](CCCNC(=N)N)C(=O)N[C@@H](C)C(=O)O)C(C)C)[C@@H](C)O)[C@@H](C)O | bacteria | SYTOX Green uptake | – | concentration not given | – | killing time | ≤ 15 min |
| CN[C@@H]1[C@H](O)[C@H](NC)[C@H]2O[C@]3(O)[C@H](O[C@@H]2[C@H]1O)O[C@H](C)C[C@@]3(O)CNCc1ccccc1 | Haemophilus influenzae | – | ATCC 49247 | 40 µg per disc | – | inhibition zone diameter | 15.5 mm |
| CC[C@@H](C)[C@@H](NC(=O)[C@@H](C)NC(=O)[C@@H](CCCCN)NC(=O)[C@@H](CC(C)C)NC(=O)[C@@H](C)NC(=O)[C@H](NC(=O)[C@@H](Cc1c[nH]cn1)NC(=O)[C@@H](CC(C)C)NC(=O)[C@H](NC(=O)[C@H](NC(=O)[C@@H](CCCCN)NC(=O)[C@@H](CCCCN)NC(=O)[C@@H](C)NC(=O)[C@@H](CO)NC(=O)[C@@H](CCCCN)NC(=O)[C@@H](Cc1ccccc1)NC(=O)[C@H](NC(=O)[C@@H](CCCCN)NC(=O)[C@@H](CC(C)C)NC(=O)[C@@H](Cc1ccccc1)NC(=O)[C@@H](CO)NC(=O)[C@@H](CCCCN)NC(=O)[C@@H](Cc1c[nH]c2ccccc12)NC(=O)[C@@H](CCCCN)NC(C)=O)[C@H](C)O)[C@H](C)O)C(C)C)[C@H](C)O)C(=O)N[C@H](CO)C(=O)N[C@H](CO)C(N)=O | Aspergillus nidulans | – | AZN 2867 | 48 h, 30 °C | – | MIC50 | 9.4 mg/L (≈ 3.14 µM) |
| CC[C@H](C)[C@H](NC(=O)[C@H](CCCCN)NC(=O)[C@H](CCCCN)NC(=O)[C@H](CC(C)C)NC(=O)[C@H](CCCCN)NC(=O)[C@H](CCC(=O)O)NC(=O)[C@H](CCCCN)NC(=O)[C@@H](NC(=O)[C@H](CCCCN)NC(=O)[C@H](CC(N)=O)NC(=O)[C@H](CCCNC(=N)N)NC(=O)[C@H](Cc1ccccc1)NC(=O)[C@H](CCCCN)NC(=O)[C@H](CCCNC(=N)N)NC(=O)[C@H](CC(C)C)NC(=O)[C@H](CCCNC(=N)N)NC(=O)[C@H](CCCCN)NC(=O)[C@H](CCCNC(=N)N)NC(=O)[C@H](CC(C)C)NC(=O)[C@@H](N)CCCNC(=N)N)[C@@H](C)CC)C(=O)NCC(=O)N[C@@H](CCC(N)=O)C(=O)N[C@@H](CCCCN)C(=O)N[C@H](C(=O)N[C@@H](CCC(N)=O)C(=O)NCC(=O)N[C@@H](Cc1ccccc1)C(=O)N[C@H](C(=O)N1CCC[C@H]1C(=O)N[C@@H](CCCCN)C(=O)N[C@@H](CC(C)C)C(=O)N[C@@H](CCC(N)=O)C(=O)N1CCC[C@H]1C(=O)N[C@@H](CO)C(=O)N[C@@H](CCCCN)C(=O)N[C@@H](CCC(N)=O)C(=O)N[C@@H](CO)C(=O)O)C(C)C)[C@@H](C)CC | Salmonella | inhibition zone | ZQ.17N | LB agar, overnight | – | lethal concentration | 2.89 µM |
| CCN(CCCCOc1ccc(CCC(=O)N2CCC(Cc3ccccc3)CC2)cc1OC)Cc1ccccc1 | Danio rerio | – | BuChE-overexpressing | concentration not given | – | BuChE activity | decreased |
| CN[C@](C)(C[18F])C(=O)O | DU-145 tumour model | – | host not given, kidney | 1 h, tumour-bearing | – | tracer uptake | 6.4 %ID/g |
| Nc1ccn(C[C@@H](CO)OCP(=O)(O)OCCCS(=O)(=O)CCCCCCCCCCCCCC2CCC2)c(=O)n1 | Betapolyomavirus hominis | qPCR | Gardner | – | baseline: CC50 over EC50 | selectivity index | 70 |
| CC[C@H](C)[C@H](NC(=O)[C@H](CCCCN)NC(=O)[C@H](CCCCN)NC(=O)[C@H](CC(C)C)NC(=O)[C@H](CCCCN)NC(=O)[C@H](CCC(=O)O)NC(=O)[C@H](CCCCN)NC(=O)[C@@H](NC(=O)[C@H](CCCCN)NC(=O)[C@H](CC(N)=O)NC(=O)[C@H](CCCNC(=N)N)NC(=O)[C@H](Cc1ccccc1)NC(=O)[C@H](CCCCN)NC(=O)[C@H](CCCNC(=N)N)NC(=O)[C@H](CC(C)C)NC(=O)[C@H](CCCNC(=N)N)NC(=O)[C@H](CCCCN)NC(=O)[C@H](CCCNC(=N)N)NC(=O)[C@@H](N)CC(C)C)[C@@H](C)CC)C(=O)NCC(=O)N[C@@H](CCC(N)=O)C(=O)N[C@@H](CCCCN)C(=O)N[C@H](C(=O)N[C@@H](CCC(N)=O)C(=O)NCC(=O)N[C@@H](Cc1ccccc1)C(=O)N[C@H](C(=O)N1CCC[C@H]1C(=O)N[C@@H](CCCCN)C(=O)N[C@@H](CC(C)C)C(=O)O)C(C)C)[C@@H](C)CC | Streptomyces griseus | inhibition zone | NBRC 13350 | 37 °C, LB agar, 154 mM NaCl | – | lethal concentration | 8.84 µM |
| COc1ccc(Br)cc1/C=N/NC(=O)Cn1ccc(=O)c2ccccc21 | Alternaria solani | microbial growth | – | 50 µg/mL | – | inhibition | 30.8% |
| CC(CCC(=O)[O-])C1CCC2C3CCC4CC(O)CCC4(C)C3CC(O)C12C.C[N+](C)(C)CC(O)CC(=O)O (stereo not shown) | Candida albicans | – | TISTR 5554 | 1 mg per disc, 18 to 24 h, 37 °C, 6 mm disc | – | inhibition zone | inactive |
| C[C@@](O)(C(F)F)[C@H](NC(=O)c1ccc(C#CC#CC2CC2)cc1)C(=O)NO | Achromobacter xylosoxidans | agar dilution | clinical isolates | – | – | MIC50 | 0.125 mg/L (≈ 0.332 µM) |
| C#CCCCOP(=O)(O)Oc1c2c(c(OP(=O)(O)OCCCC#C)c3c1C1CC3c3cc4c(cc31)C1CC4c3ccccc31)C1CC2c2cc3c(cc21)C1CC3c2ccccc21 | measles virus | viral infection, flow cytometry | A549, vaccine strain GFP | 2 days, virus pre-incubated 30 min 37 °C | – | IC50 | 30.1 µM |
| COc1ccc(N2C(=O)C=CC2=O)cc1 | Candida albicans | qRT-PCR, measured: CDC35 | – | 1 µg/mL, 12 h | baseline: untreated | mRNA level | 0.44 fold |
| CC(C)C[C@H](NC(=O)CNC(=O)[C@H](CCCCN)NC(=O)[C@@H](N)CC(C)C)C(=O)N[C@@H](C)C(=O)N[C@@H](C)C(=O)N[C@@H](CCCCN)C(=O)N[C@@H](CC(C)C)C(=O)N[C@@H](CC(C)C)C(=O)NCC(=O)N[C@@H](CC(C)C)C(=O)N[C@@H](CCCCN)C(=O)N[C@@H](CCCCN)C(=O)O | Candida albicans | – | ATCC 10231 | 128 µM | – | growth inhibition | 100% |
| CC[C@H](C)[C@H](NC(=O)[C@H](CCCCN)NC(=O)[C@H](CCCCN)NC(=O)[C@H](CC(C)C)NC(=O)[C@H](CCCCN)NC(=O)[C@H](CCC(=O)O)NC(=O)[C@H](CCCCN)NC(=O)[C@@H](NC(=O)[C@H](CCCCN)NC(=O)[C@H](CC(N)=O)NC(=O)[C@H](CCCNC(=N)N)NC(=O)[C@H](Cc1ccccc1)NC(=O)[C@H](CCCCN)NC(=O)[C@H](CCCNC(=N)N)NC(=O)[C@H](CC(C)C)NC(=O)[C@H](CCCNC(=N)N)NC(=O)[C@H](CCCCN)NC(=O)[C@H](CCCNC(=N)N)NC(=O)[C@H](CC(C)C)NC(=O)CN)[C@@H](C)CC)C(=O)NCC(=O)N[C@@H](CCC(N)=O)C(=O)N[C@@H](CCCCN)C(=O)N[C@H](C(=O)N[C@@H](CCC(N)=O)C(=O)NCC(=O)N[C@@H](Cc1ccccc1)C(=O)N[C@H](C(=O)N1CCC[C@H]1C(=O)N[C@@H](CCCCN)C(=O)N[C@@H](CC(C)C)C(=O)N[C@@H](C)C(=O)N1CCC[C@H]1C(=O)N[C@@H](CCCNC(=N)N)C(=O)N[C@H](C(=O)N[C@@H](CC(=O)O)C(=O)N[C@@H](Cc1ccc(O)cc1)C(=O)O)[C@@H](C)O)C(C)C)[C@@H](C)CC | Streptomyces griseus | inhibition zone | NBRC 13350 | 37 °C, LB agar, 154 mM NaCl | – | lethal concentration | 6.36 µM |
| N=C(N)NCCC[C@@H]1NC(=O)[C@H](CCCCNC(=O)CCOCCOCCOCCOCCNC(=O)CC[C@H](NC(=O)CCOCCOCCOCCOCCNC(=O)CC[C@H](NC(=O)CN2CCN(CC(=O)O)CCN(CC(=O)O)CCN(CC(=O)O)CC2)C(=O)NCCOCCOCCOCCOCCC(=O)N[C@@H](CCC(=O)NCCOCCOCCOCCOCCC(=O)NCCCC[C@@H]2NC(=O)[C@@H](Cc3ccccc3)NC(=O)[C@H](CC(=O)O)NC(=O)CNC(=O)[C@H](CCCNC(=N)N)NC2=O)C(=O)NCCOCCOCCOCCOCCC(=O)NCCCC[C@@H]2NC(=O)[C@@H](Cc3ccccc3)NC(=O)[C@H](CC(=O)O)NC(=O)CNC(=O)[C@H](CCCNC(=N)N)NC2=O)C(=O)NCCOCCOCCOCCOCCC(=O)NCCCC[C@@H]2NC(=O)[C@@H](Cc3ccccc3)NC(=O)[C@H](CC(=O)O)NC(=O)CNC(=O)[C@H](CCCNC(=N)N)NC2=O)NC(=O)[C@@H](Cc2ccccc2)NC(=O)[C@H](CC(=O)O)NC(=O)CNC1=O [indium-111 labelled] | – | – | female athymic nude mice, eyes | intravenous, 3 µCi, 24 h, U-87 MG glioma xenograft | – | tissue uptake | 0.63 ± 0.1 %ID/g |
| CN(C)CCNC(=O)/C=C/C(Cc1ccccc1)Nc1ccnc2cc(Cl)ccc12 (stereo not shown) | Plasmodium berghei | – | NAT atovaquone-resistant, ICR mouse infected | 10 mg/kg, 0 days post infection before treatment | – | body weight | 27.7 ± 1.28 g |
